Published values from different studies.
Numbered parts are unrelated; each lists some results of a single study.

Study 1
Target: Histamine H3 receptor (HRH3, Homo sapiens, UniProt Q9Y5N1)
Sequence of UniProt Q9Y5N1 (whole entry, looked up): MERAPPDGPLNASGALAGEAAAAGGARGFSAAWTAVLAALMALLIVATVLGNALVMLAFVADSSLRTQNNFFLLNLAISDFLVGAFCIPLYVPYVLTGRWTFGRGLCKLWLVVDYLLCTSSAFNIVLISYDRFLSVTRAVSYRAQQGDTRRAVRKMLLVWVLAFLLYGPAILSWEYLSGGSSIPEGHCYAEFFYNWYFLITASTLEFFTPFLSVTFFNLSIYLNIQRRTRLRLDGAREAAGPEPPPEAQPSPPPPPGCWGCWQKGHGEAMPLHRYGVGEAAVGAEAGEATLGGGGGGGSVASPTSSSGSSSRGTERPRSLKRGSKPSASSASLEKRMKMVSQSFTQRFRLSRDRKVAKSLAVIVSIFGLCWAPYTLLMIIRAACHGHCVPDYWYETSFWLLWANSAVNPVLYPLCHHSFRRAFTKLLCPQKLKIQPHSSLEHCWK
Read-out: binding
Technique: radioligand binding
Tested at: 10 µM
| Structure (SMILES) | inhibition [%] |
| --- | --- |
| O[C@]1(C(F)(F)F)CCCC[C@H]1Nc1ccc(F)cc1 | -12.8 |
| O=C([C@H]1C[C@H](O)CN1c1ccc(Cl)cc1)N1CC2COCC(C1)N2Cc1ccc(Cl)cc1 | 9.39 |
| Cc1c(NC(=O)c2cc(C(N)=O)nc3cc(F)ccc23)c(C(F)(F)F)nn1Cc1ccc(C(C)(C)C)cc1 | -11.8 |
| Cc1c(N2CCCC2)nc2ccc(Br)cc2c1C(=O)NC[C@H](CCC(=O)O)c1ccccc1Cl | -15.7 |
| CN1CCN(C(=O)C(C)(C)c2ccc(C(=O)Nc3cn4cc(-c5ccncc5)ccc4n3)cc2)CC1 | 16.6 |
| Cc1cc(-n2nc(Cc3cc(F)cc(C(F)(F)F)c3)nc2C)ccc1C(N)=O | 11.4 |
| CC1=C(C#N)C(c2ccc3c(c2)c(NC(=O)c2ccccc2C)nn3C)C(C#N)=C(C)N1 | 1.89 |
| COc1cccc(CNC(=O)c2nc3scc(COCc4ccc(C(=O)O)cc4)c3c(=O)[nH]2)c1 | -9.59 |
| C[C@H](NC(=O)c1cnc2n1[C@](C)(Cc1ccc(C#N)cc1)C(=O)N2c1cc(Cl)c(F)c(Cl)c1)C(=O)NC1(c2ccccn2)CC1 | 1.43 |
| COc1cc(-c2cn(C3CCc4ccccc4N(CC(F)(F)F)C3=O)nn2)ccc1-n1ccc(C)n1 (stereo not shown) | 20.9 |
| O=C(O)c1cc(-c2ccc(C3CCNCC3)cc2)c2ccc(-c3ccc(C(F)(F)F)cc3)cc2c1 | 0.03 |
| Cc1nc(N2CC[C@@H](O)C2)ncc1-c1cc(C(F)(F)F)cc2[nH]ncc12 | 28.6 |
| CNC(=O)c1ccc(Nc2ncc(C(F)(F)F)c(NCc3nccnc3N(C)S(C)(=O)=O)n2)cc1 | -7.94 |
| CNC(=O)Nc1ccc2c(c1)[C@]1(CC2)OC(=O)N(CC(=O)N(Cc2ccc(F)cc2)[C@@H](C)C(F)(F)F)C1=O | 13.2 |
| Cc1nc(Cc2cccc(C(F)(F)F)c2)sc1-c1ccc(C(N)=O)nc1 | 3.48 |
| COCCc1ccc(-c2c(C)nc3c(N4CCOCC4)ccnn23)cn1 | 3.7 |
| Nc1c(C(=O)NCc2ccc(C(=O)NCCCC3CCCCC3)cc2)cnn1-c1ccccc1 | -2.98 |
| CN([C@@H]1CCc2c(CC(=O)O)c3cc(S(C)(=O)=O)ccc3n2C1)S(=O)(=O)c1ccc(F)cc1 | -13.7 |
| COCc1nc2cnc3cc(-c4c(C)noc4C)c(OC[C@H]4CCNC4)cc3c2n1[C@H](C)c1ccccc1 | -5.03 |
| O=C(Nc1cnc(Oc2ccc(F)cc2)nc1)N1CCc2ncccc2[C@@H]1c1ccc(F)cc1 | -8.41 |
| Cc1c[nH]c2nccc(Oc3c(F)cc(Nc4cc(Cl)nc(N)n4)cc3F)c12 | 8.13 |

Study 2
Target: Serine/threonine-protein kinase B-raf (BRAF, Homo sapiens, UniProt P15056)
Sequence of UniProt P15056 (whole entry, looked up): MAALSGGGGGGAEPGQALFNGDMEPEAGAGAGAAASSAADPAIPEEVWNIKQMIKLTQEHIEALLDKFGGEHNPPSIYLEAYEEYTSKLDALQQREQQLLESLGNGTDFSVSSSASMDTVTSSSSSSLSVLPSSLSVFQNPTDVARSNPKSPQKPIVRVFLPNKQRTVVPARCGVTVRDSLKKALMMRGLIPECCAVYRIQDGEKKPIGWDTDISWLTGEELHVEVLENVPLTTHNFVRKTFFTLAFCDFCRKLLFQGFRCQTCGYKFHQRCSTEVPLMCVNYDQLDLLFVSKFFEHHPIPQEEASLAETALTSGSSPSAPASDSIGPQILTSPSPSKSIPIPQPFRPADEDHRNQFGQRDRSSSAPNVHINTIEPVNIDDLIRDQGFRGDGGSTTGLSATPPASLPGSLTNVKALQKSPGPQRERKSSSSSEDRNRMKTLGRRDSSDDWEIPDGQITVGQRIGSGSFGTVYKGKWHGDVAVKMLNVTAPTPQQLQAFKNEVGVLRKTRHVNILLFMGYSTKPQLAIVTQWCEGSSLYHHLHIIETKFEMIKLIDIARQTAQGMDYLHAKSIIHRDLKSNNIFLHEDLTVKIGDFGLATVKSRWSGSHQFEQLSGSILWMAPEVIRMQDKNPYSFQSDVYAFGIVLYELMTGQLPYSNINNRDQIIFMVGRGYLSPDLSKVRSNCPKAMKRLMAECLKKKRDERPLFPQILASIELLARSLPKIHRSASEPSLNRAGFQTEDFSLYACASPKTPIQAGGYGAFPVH
Read-out: enzyme activity
Mode: inhibitor
Tested at: 0.5 µM
Relative to: control
| Structure (SMILES) | remaining activity |
| --- | --- |
| O=C1Cc2c([nH]c3ccc([N+](=O)[O-])cc23)-c2ccccc2N1 | 99.5% |
| CC#CC(=O)Nc1cc2c(Nc3ccc(F)c(Cl)c3)ncnc2cn1 | 82.1% |
| CC(C)(C)n1nc(Cc2cccc3ccccc23)c2c(N)ncnc21 | 91.3% |
| Cc1cc(Nc2nc(-c3ccccc3)nc3ccccc23)n[nH]1 | 99.5% |
| Nc1ncnc2c1cnn2-c1ccccc1 | 93.6% |
| O=C1NC(=O)C(c2c[nH]c3ccccc23)=C1c1c[nH]c2ccccc12 | 101% |
| Nc1nc(Nc2ccc(S(N)(=O)=O)cc2)nn1C(=O)c1c(F)cccc1F | 55% |

Study 3
Species: mouse
Matrix: microsomes or S9
Tested at: 2 µM
Time: 0.5 h
| SMILES | remaining compound [%] |
| --- | --- |
| Cl/C(=C/c1cccc2nccn12)c1nc2ccccc2s1 | 0.589 |
| CN1CCCn2nc(C(=O)N(C)Cc3cc4cc(F)ccc4[nH]3)cc2C1 | 16.6 |
| Cc1ccc(C)c(C[S+]([O-])Cc2cc(=O)n(C)c(=O)n2C)c1 (stereo not shown) | 6.4 |
| O=C(CCc1ccccc1Cl)NCc1[nH]ncc1Br | 2.4 |
| CN1CC[C@H](Oc2cc(N3Cc4ccccc4C3=O)ccc2Cl)C1 | 27.4 |

Study 4
Target: Beta-1 adrenergic receptor (ADRB1, Homo sapiens, UniProt P08588)
Sequence of UniProt P08588 (whole entry, looked up): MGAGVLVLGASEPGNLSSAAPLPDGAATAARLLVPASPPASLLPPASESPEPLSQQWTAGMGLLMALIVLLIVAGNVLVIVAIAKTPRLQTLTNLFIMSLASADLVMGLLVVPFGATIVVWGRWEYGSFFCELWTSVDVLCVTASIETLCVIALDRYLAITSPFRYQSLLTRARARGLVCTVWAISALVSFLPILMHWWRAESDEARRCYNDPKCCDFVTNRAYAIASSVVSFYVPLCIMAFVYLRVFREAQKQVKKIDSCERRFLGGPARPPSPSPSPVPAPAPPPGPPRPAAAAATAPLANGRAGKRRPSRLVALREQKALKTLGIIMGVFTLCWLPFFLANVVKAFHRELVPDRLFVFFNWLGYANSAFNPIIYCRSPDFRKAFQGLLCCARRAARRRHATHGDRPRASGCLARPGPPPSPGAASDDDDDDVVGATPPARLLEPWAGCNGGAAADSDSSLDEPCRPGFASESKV
Mode: antagonist
| Structure (SMILES) | IC50 [µM] |
| --- | --- |
| CC(=O)Nc1sc2c(c1-c1cccc3ccccc13)CCNC2 | ≥ 100 |
| CCOc1cccc(-c2cc(-c3nnc(S)n3CC)c3ccccc3n2)c1 | ≥ 100 |
| COc1ccc2c(CSc3nnnn3-c3ccccc3)cc(=O)oc2c1 | ≥ 100 |
| OC(COc1ccc(CN2CC(O)C2)cc1)CN1CCCCC1 (stereo not shown) | ≥ 100 |
| COc1ccccc1-c1nnc(SCc2cc(=O)oc3cc(O)ccc23)n1C | ≥ 100 |
| Cc1cc2c(F)c(Oc3ncnn4cc(OC[C@@H](C)OC(=O)[C@H](C)N)c(C)c34)ccc2[nH]1 | ≥ 100 |

Study 5
Structure (SMILES): CC(C)n1cnc(-c2ccc(F)cc2)c1-c1ncc(C(=O)Nc2ccc(N3CCN(C)CC3)cc2)[nH]1
| test | test system | conditions | patients with adverse event |
| --- | --- | --- | --- |
| item: skin papilloma, maximum grade 3 | idiopathic pulmonary fibrosis patients | dose not given, all compound arms pooled | 0% |
| item: periorbital oedema, grade 4 | idiopathic pulmonary fibrosis patients | oral, 60 mg once daily | 0% |
| Phase 2a trial, item: hypocalcaemia | human, idiopathic pulmonary fibrosis | 30 mg once daily, grade 5 | 0% |
| Phase 2a trial, item: hepatic steatosis | human, idiopathic pulmonary fibrosis | 30 mg once daily, grade 5 | 0% |
| Phase 2a trial, item: eosinophilia myalgia syndrome | human, idiopathic pulmonary fibrosis | 30 mg once daily, grade 1 | 0% |
| Phase 2a trial, item: blood glucose increased | human, idiopathic pulmonary fibrosis | 30 mg once daily, grade 1 | 0% |
| Phase 2a trial, item: haemoptysis | human, idiopathic pulmonary fibrosis | all compound arms, grade 3 | 0% |
